# Experimental data from different studies.
# Every numbered part comes from another study and shows a few of its results, in no order. Values joined by “and” are separate records of one study, mostly repeats; a detail may differ.

# Series 1 — observed: thermal unfolding; method: differential scanning fluorimetry; concentration: 5.5 µM; reading: higher = more unfolded
# SMILES: C[C@@H]1CN(c2ccc(-c3cc(C(=O)NCCOCCOCCOCCOCCNC(=O)/C=C/c4[nH]cc(C(=O)N[C@@H](CC(N)=O)c5ccc(F)c(Cl)c5)c4-c4ccc(Cl)cc4F)ccc3F)cc2NC(=O)c2c[nH]c(=O)cc2C(F)(F)F)C[C@H](C)N1C
# DCAF1: DDB1- and CUL4-associated factor 1 (DCAF1, Homo sapiens, UniProt Q9Y4B6)
# Sequence of UniProt Q9Y4B6 (whole entry, looked up): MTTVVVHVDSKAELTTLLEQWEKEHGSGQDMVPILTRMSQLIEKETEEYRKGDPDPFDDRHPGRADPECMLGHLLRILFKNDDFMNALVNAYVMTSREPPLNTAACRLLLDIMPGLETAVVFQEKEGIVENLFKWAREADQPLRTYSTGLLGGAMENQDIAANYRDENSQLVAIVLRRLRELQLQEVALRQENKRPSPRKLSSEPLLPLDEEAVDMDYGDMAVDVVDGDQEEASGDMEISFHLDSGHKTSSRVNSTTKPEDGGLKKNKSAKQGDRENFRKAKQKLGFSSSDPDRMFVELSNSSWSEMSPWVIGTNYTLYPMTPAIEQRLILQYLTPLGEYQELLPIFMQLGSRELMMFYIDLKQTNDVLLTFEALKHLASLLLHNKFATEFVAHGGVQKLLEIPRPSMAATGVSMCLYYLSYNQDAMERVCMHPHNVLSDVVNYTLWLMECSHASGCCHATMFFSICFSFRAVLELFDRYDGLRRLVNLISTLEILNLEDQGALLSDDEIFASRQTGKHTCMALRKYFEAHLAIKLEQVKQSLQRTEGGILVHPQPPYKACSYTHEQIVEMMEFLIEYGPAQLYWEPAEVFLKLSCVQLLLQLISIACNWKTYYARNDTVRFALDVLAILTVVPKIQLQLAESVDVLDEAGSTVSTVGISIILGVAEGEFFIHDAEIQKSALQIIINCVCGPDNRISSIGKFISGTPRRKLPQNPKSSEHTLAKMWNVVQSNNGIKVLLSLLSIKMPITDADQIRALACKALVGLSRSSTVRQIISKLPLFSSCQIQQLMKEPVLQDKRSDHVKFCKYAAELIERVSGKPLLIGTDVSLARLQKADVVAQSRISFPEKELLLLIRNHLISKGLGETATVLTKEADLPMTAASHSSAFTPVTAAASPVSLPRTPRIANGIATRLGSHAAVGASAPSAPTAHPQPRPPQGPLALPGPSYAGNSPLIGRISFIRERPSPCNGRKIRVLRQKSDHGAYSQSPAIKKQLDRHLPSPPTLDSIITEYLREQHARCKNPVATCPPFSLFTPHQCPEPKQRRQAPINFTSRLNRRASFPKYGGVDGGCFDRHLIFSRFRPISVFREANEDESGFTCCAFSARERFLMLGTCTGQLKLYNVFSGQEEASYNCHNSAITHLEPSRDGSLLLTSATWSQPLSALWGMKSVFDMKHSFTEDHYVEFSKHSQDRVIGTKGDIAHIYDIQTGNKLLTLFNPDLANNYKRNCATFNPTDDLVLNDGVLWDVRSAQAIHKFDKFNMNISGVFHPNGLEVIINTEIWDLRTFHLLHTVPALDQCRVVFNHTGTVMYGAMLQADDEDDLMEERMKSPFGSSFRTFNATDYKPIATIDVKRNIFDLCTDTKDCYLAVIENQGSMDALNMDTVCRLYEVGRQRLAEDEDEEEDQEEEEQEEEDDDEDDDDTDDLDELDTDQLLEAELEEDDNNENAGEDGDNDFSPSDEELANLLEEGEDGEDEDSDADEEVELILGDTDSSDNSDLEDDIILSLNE
target,temperature,SYPRO Orange fluorescence
"WD repeat-containing protein 5 (WDR5, Homo sapiens, UniProt P61964)",84.81 °C,52000 a.u.
DCAF1,89.41 °C,35700 a.u.
DCAF1,90.81 °C,34200 a.u.
DCAF1,29 °C,9300 a.u.
DCAF1,44.2 °C,12700 a.u.
DCAF1,93.81 °C,30800 a.u.
DCAF1,80.61 °C,44500 a.u.
DCAF1,89.81 °C,35300 a.u.

# Series 2 — species: Crbn I391V mouse, MC-38 tumour
# SMILES: Cn1cc(-c2cccc(CN3CCC4(CC3)COc3c4ccc4c3CN([C@H]3CCC(=O)NC3=O)C4=O)c2)cn1
route,dose,time,notes,with,tumour volume
,30 mg/kg,day 39,,anti-LAG3 antibody 10 mg/kg weekly,285 mm3
,30 mg/kg,day 6,,anti-LAG3 antibody 10 mg/kg weekly,321 mm3 and 296 mm3 and 254 mm3 and 227 mm3
"oral, daily",30 mg/kg,day 5,anti-PD1 combination study,,175 mm3 and 229 mm3 and 546 mm3 and 266 mm3 and 238 mm3
"oral, daily",30 mg/kg,day 8,anti-PD1 combination study,,270 mm3 and 306 mm3 and 523 mm3 and 181 mm3 and 325 mm3
oral,30 mg/kg once daily,day 7,,,281 mm3 and 75.1 mm3 and 341 mm3 and 133 mm3 and 247 mm3
,30 mg/kg,day 8,,anti-LAG3 antibody 10 mg/kg weekly,306 mm3 and 252 mm3 and 564 mm3 and 354 mm3
oral,30 mg/kg once daily,day 18,,,510 mm3 and 46.9 mm3 and 630 mm3 and 31.5 mm3 and 63.6 mm3

# Series 3 — species: mice, male and female, formalin pain; route: intrathecal; with: formalin 5%, 20 µL intraplantar; reading: higher = more pain
# SMILES: COc1cc(C(=O)OCCCN2CCCN(CCCOC(=O)c3cc(OC)c(OC)c(OCc4ccc([N+](=O)[O-])cc4)c3)CC2)cc(OC)c1OC
dose,time,licking and flinching time
10 nmol,30-35 min after formalin,51.1 a.u. and 20.9 a.u. and 99.9 a.u. and 41.7 a.u. and 43.1 a.u. and 24.7 a.u. and 2.56 a.u. and 1.24 a.u.
1 nmol,15-20 min after formalin,32.4 a.u. and 11.3 a.u. and 22.7 a.u. and 11.8 a.u. and 87.5 a.u. and 49.9 a.u. and 54.5 a.u. and 40.5 a.u.
1 nmol,0-10 min,195 a.u. and 196 a.u. and 268 a.u. and 203 a.u. and 206 a.u. and 207 a.u. and 170 a.u. and 281 a.u.
1 nmol,20-25 min after formalin,56.8 a.u. and 66.4 a.u. and 13 a.u. and 16.3 a.u. and 96.4 a.u. and 159 a.u. and 92.2 a.u. and 50.2 a.u.
100 nmol,0-10 min,157 a.u. and 162 a.u. and 195 a.u. and 180 a.u. and 196 a.u. and 191 a.u. and 193 a.u. and 152 a.u.

# Single results of other studies
Compound,target,test system,setting,how to read,endpoint,value
Cc1nc(C)c(C=[N+]([O-])C(C)(C)C)nc1C,mitochondrial complex I,"primary cerebellar granule neurons, rat","100 µM, with: MPP+",relative to: control,complex I activity,74.9% and 57.1% and 64.8%
